Measurements pooled from the literature.
Numbered parts are unrelated; each lists some results of a single study. Positions count from the first letter of the parent shown.

Series 1
Target: ATF5, bZIP domain (human)
Method: DHFR protein complementation
Medium: yeast
Notes: single substitutions, most at no-binding floor
Relative to: wild-type JUN-FOS pair
Reading: higher = stronger binding
Endpoint: binding fitness
Starting sequence: JUN, bZIP domain (human); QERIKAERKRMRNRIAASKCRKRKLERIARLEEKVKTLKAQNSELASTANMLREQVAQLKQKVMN; partner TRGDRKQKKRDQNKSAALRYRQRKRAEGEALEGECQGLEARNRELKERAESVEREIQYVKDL
S47M: -1.49 natural log
L38S: -1.42 natural log
A49N: -1.45 natural log
L52M: -1.51 natural log
A46W: -1.54 natural log
A29I: -1.42 natural log
A46D: -1.49 natural log
A49Y: -1.54 natural log
M51R: -1.42 natural log
Q41Y: -1.52 natural log
K36C: -1.55 natural log
T48H: -1.54 natural log
K36V: -1.39 natural log
N42W: -1.39 natural log
S47D: -1.49 natural log
L45I: -1.49 natural log
L52F: -1.5 natural log
R30A: -1.47 natural log
K39E: -1.32 natural log
R53V: -1.49 natural log
R30C: -1.33 natural log
T48S: -1.36 natural log
Q41A: -1.41 natural log
K36H: -1.5 natural log

Series 2
Target: Interferon regulatory factor 3, full length, phosphomimetic (IRF3, Homo sapiens, UniProt Q14653, residues 1-427, S386D/S396D/S398D/S402D/T404D/S405D)
Method: protein-binding microarray
Molecule type: double-stranded DNA, one strand shown
Medium: in vitro
Concentration: 2540 nM top
Notes: 60-bp whole probe
Together with: salmon DNA 0.4 mg/ml
Relative to: random background probes
Reading: higher = stronger binding
Endpoint: fitted relative affinity
Constant ends, left off below: GCCTAGCAC … GTCTTGATTCGCTTGACGCTGCTG
Residues (chain): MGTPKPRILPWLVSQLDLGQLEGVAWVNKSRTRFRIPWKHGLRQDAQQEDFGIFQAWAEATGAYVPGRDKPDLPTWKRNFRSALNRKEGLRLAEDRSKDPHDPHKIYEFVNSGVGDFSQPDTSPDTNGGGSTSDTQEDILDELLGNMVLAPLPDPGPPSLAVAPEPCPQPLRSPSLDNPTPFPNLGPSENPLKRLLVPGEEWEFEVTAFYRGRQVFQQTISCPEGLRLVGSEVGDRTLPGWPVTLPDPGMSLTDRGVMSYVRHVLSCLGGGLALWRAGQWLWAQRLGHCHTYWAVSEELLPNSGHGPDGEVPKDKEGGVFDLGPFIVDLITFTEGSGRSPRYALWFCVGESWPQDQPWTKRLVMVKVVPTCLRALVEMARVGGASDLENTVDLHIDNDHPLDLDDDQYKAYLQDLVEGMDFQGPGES
TTAGGTAACGGGACTGGGTTAGTGCTA: -0.64 z-score
GACTGTATCCTACTGCTGACGTGCTAG: 2.44 z-score
TTAGATATCAGTATCGATTTGTGCTAG: 2.73 z-score
TTAGTACTGCTTCTCCTTTAGTGCTAG: 0.492 z-score
TCCGTATGGATGGCCAATTGGTGCTAG: 0.0485 z-score
TCAAGCCTAAGGTTTAGGACTGTGCTA: -0.821 z-score
CTTAGACTGTCCTGCTGGAGGTGCTAG: -0.122 z-score
TCAGTTATCCATCTCAAACTGTGCTAG: 3.77 z-score
TTAGCTTTCGGGTATCGATTAGTGCTA: 1.75 z-score
ATCATTTTCGTTTTTATTATGTGCTAG: 6.15 z-score
GACGGTTGCCTTCTCCTGACGTGCTAG: 5.49 z-score
GACGGTTCCCTTCTCCTGACGTGCTAG: 6.83 z-score
GACGGTCTCCTACTGCTGAGGTGCTAG: 1.09 z-score
TTTCCTTCCTCTTTTACCCCGTGCTAG: 8.49 z-score
GACGGTATCCTTTTCATGACGTGCTAG: 7.18 z-score
TTAGATATCAGTTTCCATTAGTGCTAG: 5.53 z-score
GACGAACTGAGACTGGCGACGTGCTAG: -0.319 z-score
TTAGGACTGGACTATCGGCTAGTGCTA: -0.653 z-score
TTAGGTATCCTTATCCTGTAGTGCTAG: 4.77 z-score
TTAGGTTCCCTTTTCATTTAGTGCTAG: 7.33 z-score
TTAGGTATCCTTATCCTTTAGTGCTAG: 5.12 z-score

Series 3
Target: CCNA1, cyclin fold, Cln2 fusion (human)
Method: yeast growth competition, sequencing
Medium: yeast
Notes: weak parent motif
Relative to: not given
Reading: higher = stronger binding
Endpoint: normalised enrichment score
Starting sequence: ORC1 docking peptide (human); PRARKRLELGNLG; partner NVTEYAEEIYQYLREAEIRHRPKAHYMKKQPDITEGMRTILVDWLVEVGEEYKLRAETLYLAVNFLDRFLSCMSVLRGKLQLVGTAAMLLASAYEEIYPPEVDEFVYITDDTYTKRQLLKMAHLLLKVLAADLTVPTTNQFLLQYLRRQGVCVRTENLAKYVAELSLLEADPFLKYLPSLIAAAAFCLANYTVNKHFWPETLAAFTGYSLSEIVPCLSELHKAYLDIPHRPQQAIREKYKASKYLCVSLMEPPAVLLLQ
PRARKRKELGNLG [L7K]: 0.705
PRKRKRLELGNLG [A3K]: 0.0218
PRARKRLELGQLG [N11Q]: 0.0386
PSARKRLELGNLG [R2S]: 0.0677
PRARKRLELGLLG [N11L]: 0.377
PRARQRLELGNLG [K5Q]: 0.338
PRARKRLELGNLY [G13Y]: 0.261
PRARKRLELDNLG [G10D]: 0.686
PRMRKRLELGNLG [A3M]: 1.07
PCARKRLELGNLG [R2C]: 0.165
PRARKRLELGNLR [G13R]: 0.294
PRARKRLELGNWG [L12W]: 0.658
PRARHRLELGNLG [K5H]: 0.219
PRARKRLSLGNLG [E8S]: 0.503
PRAPKRLELGNLG [R4P]: 0.0779
PRARKRLELGNLC [G13C]: 0.452
PRARKRLELGNKG [L12K]: 0.471
PRASKRLELGNLG [R4S]: -0.0484
PRARLRLELGNLG [K5L]: 0.189
PRARKRLELGELG [N11E]: 0.263
PRARKRLELGNIG [L12I]: 0.324
PRARRRLEFGNLG [K5R L9F]: 1.46
PRARKRLELVNLG [G10V]: 0.158

Series 4
Target: Sal-like protein 4, full length isoform A (SALL4, Homo sapiens, UniProt Q9UJQ4, residues 1-1053)
UniProt Q9UJQ4, sequence (whole entry, looked up): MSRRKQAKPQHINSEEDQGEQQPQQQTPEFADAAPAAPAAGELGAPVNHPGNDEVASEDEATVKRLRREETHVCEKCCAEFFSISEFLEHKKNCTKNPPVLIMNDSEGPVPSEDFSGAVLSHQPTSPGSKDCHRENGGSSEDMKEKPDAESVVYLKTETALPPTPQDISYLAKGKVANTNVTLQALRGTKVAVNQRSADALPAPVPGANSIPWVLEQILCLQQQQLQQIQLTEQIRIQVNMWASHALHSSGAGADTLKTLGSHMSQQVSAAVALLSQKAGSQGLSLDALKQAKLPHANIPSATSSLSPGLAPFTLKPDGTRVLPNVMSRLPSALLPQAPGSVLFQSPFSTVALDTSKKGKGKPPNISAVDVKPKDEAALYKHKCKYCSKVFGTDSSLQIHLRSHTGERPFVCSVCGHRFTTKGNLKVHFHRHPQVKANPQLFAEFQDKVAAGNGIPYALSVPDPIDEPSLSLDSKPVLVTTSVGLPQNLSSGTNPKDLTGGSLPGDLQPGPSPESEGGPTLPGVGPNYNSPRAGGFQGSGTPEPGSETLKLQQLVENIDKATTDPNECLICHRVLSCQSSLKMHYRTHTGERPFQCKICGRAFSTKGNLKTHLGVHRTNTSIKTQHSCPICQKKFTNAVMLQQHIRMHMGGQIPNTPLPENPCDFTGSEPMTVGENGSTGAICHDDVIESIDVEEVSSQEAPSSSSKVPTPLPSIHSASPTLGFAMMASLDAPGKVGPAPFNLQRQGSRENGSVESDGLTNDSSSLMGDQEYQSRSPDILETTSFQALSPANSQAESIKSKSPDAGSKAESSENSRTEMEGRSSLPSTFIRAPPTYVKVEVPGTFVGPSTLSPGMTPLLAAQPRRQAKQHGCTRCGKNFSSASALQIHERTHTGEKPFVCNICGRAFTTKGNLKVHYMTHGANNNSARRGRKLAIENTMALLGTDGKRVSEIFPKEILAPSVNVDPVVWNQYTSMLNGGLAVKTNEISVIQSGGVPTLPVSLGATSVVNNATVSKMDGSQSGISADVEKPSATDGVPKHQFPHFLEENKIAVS
Method: universal PBM
Molecule type: double-stranded DNA, one strand shown
Medium: in vitro
Concentration: 600 nM
Notes: 8-mer, flanks averaged, mean of replicates
Reading: higher = stronger binding
Endpoint: E-score
AGTAGGCA: 0.0404
CAAACCGC: -0.254
AGAATTGA: 0.166
ATATTCGG: 0.241
ATTCACCG: -0.0244
AGAGCATA: 0.131
ATCCGGTG: -0.137
CGATCGAC: 0.0269
CAAACTCG: -0.23
GAGCTATC: -0.0741
ACGGCTCT: -0.155
CACGCGAA: -0.0496
AAGAACTT: 0.0964
CACGAGCC: -0.242
GTTCCTTA: -0.0322
GCATTCTA: 0.146
AATTCGCA: 0.0775
TGAATCAA: 0.246
TGAGCCCA: -0.237

Series 5
Target: CRIPT, C-terminal peptide
Method: DHFR complementation, deep sequencing
Medium: yeast
Notes: single substitutions, model-inferred values
Relative to: wild type
Reading: higher = weaker binding
Endpoint: binding free energy change
Starting sequence: ERBIN, PDZ domain 1 (human); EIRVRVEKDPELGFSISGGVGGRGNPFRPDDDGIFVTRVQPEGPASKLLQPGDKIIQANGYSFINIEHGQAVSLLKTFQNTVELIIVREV; partner TKNYKQTSV
G13T: 6.56 kJ/mol
V36P: 4.16 kJ/mol
I64H: 0.0713 kJ/mol
N65L: 0.657 kJ/mol
P26T: 3.69 kJ/mol
L48K: -0.136 kJ/mol
V72Y: 5.5 kJ/mol
E11R: 1.58 kJ/mol
I16V: 1.86 kJ/mol
K8L: 5.95 kJ/mol
G33N: 3.92 kJ/mol
V90H: -0.0497 kJ/mol
S17R: 5 kJ/mol
E89G: -0.0777 kJ/mol
P26H: 4.14 kJ/mol
V39C: 1.87 kJ/mol
D30N: 0.936 kJ/mol
F35S: 2.61 kJ/mol
Q70V: 0.0178 kJ/mol
G60P: 4.62 kJ/mol
L12C: -1.43 kJ/mol
K8V: 5.46 kJ/mol
Q50F: -0.211 kJ/mol
S73V: 0.148 kJ/mol
P44V: 4.35 kJ/mol

Series 6
Target: ABI1, truncated, D143A, DHFR fusion (Arabidopsis thaliana)
Method: DHFR PCA, deep sequencing
Medium: yeast
Notes: methotrexate growth selection, single substitutions
Together with: (+)-ABA 0.032 µM
Relative to: wild-type fitted maximum
Reading: higher = stronger binding
Endpoint: relative binding score
Starting sequence: PYL1, truncated, DHFR fusion (Arabidopsis thaliana); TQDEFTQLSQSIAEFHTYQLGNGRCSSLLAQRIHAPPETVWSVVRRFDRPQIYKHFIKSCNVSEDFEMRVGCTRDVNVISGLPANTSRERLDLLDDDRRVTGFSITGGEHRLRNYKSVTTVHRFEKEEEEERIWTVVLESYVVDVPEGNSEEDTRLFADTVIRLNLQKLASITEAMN
S11A: 56.4%
Q2G: 5.02%
L93K: 1.43%
E130N: 18.3%
V136S: -1.06%
H122K: 3.1%
L91C: 6.93%
F47I: -3.7%
C60H: -7.05%
R99G: 0.269%
I133D: 52%

Further values, each from its own experiment
PhoQ, residues 284 288 289 292 302 303 AGGLSV
fold induction (PhoP, residues 12 14 15 18 19 LYHSL (Escherichia coli, UniProt P23836); Sort-seq, refers to: YFP reporter; E. coli; PhoQ-PhoP variant library, together with: 10 µM Mg2+; relative to: high Mg2+ state, higher = stronger signaling): 13.2

A few entries again (series 6):
Q2G: 5.02%
L93K: 1.43%
H122K: 3.1%
I133D: 52%
L91C: 6.93%
R99G: 0.269%
C60H: -7.05%
E130N: 18.3%
F47I: -3.7%
S11A: 56.4%
V136S: -1.06%
